Measurements gathered from unrelated publications.
Each line is one published result; not all experiments were run side by side. “And” joins repeats or separate records; there may be more than shown.
Cell line: HEK293

For `COc1nc(OCc2cccc(-c3ccccc3)c2C)ccc1CNCCNC(C)=O`, the IC50 was 5.2 µM (cell viability, MTT).
With `N=C(N)Nc1ccc(NC(=O)c2ccc(Cl)c(Cl)c2)cc1OCc1ccc(C(F)(F)F)cc1` the IC50 was > 500 µM (cell growth, MTT; 48 h).
`COc1cccc2c1C(=O)c1c(O)c3c(c(O)c1C2=O)C[C@@](O)(C(=O)CO)C[C@@H]3O[C@H]1C[C@H](N)[C@H](O)[C@H](C)O1` gave an IC50 of 9.34 µg/mL (MTT; 24 h).
With `CC(=O)[C@@H]1CCCN1C(=O)[C@@H]1CCCN1C(=O)OC(C)(C)C` the IC50 was 5930 µM and 5140 µM and 5260 µM (cell growth, sulforhodamine B).
The IC50 of `CC1CCC(C(C)C)C(OC2=C(Cl)C(=O)c3ccccc3C2=O)C1` (stereo not drawn) is reported as > 50 µg/mL (MTT; 24 h).
With `CCOc1ccc(C(=O)Nc2ccc(S(N)(=O)=O)c(OC)c2)cc1` the IC50 was > 100 µM (cell viability, MTT; 48 h).
For `C#CCCCC[C@H](C)C[C@@H](C)C(=O)N1C(=O)OC[C@H]1Cc1ccccc1`, the IC50 was 318 µM and 283 µM and 280 µM (cell growth, sulforhodamine B).
For `COc1ccc(C(=O)Nc2ccc(NC(=N)N)c(OCc3cc(OC)ccc3OC)c2)cc1`, the IC50 was > 500 µM (cell growth, MTT; 48 h).
`CC(O)[C@@H]1CCCN1C(=O)[C@@H]1CCCN1C(=O)OC(C)(C)C` (mixture of isomers) gave an IC50 of 3540 µM and 3440 µM and 3190 µM (cell growth, sulforhodamine B).
`COc1cc(NC(=O)c2ccccn2)ccc1S(N)(=O)=O` has an IC50 of > 100 µM (cell viability, MTT; 48 h).
For `COc1ccc(OC)c(COc2cc(NC(=O)c3ccc4c(c3)OCO4)ccc2NC(=N)N)c1`, the IC50 was > 500 µM (cell growth, MTT; 48 h).
With `COc1cc(NC(=O)c2cccc(C)c2)ccc1S(N)(=O)=O` the IC50 was > 100 µM (cell viability, MTT; 48 h).
For `Nc1ccn([C@@H]2O[C@H](CO)[C@@H](O)C2(F)F)c(=O)n1`, the IC50 was 0.1 µM (cell viability, MTT).
For `COc1cc(NC(=O)c2ccc([N+](=O)[O-])cc2)ccc1S(N)(=O)=O`, the IC50 was > 100 µM (cell viability, MTT; 48 h).
For `CCCCCCOc1cc(NC(=O)c2ccc(OC)cc2)ccc1NC(=N)N`, the IC50 was > 500 µM (cell growth, MTT; 48 h).

A few entries again:
`COc1cccc2c1C(=O)c1c(O)c3c(c(O)c1C2=O)C[C@@](O)(C(=O)CO)C[C@@H]3O[C@H]1C[C@H](N)[C@H](O)[C@H](C)O1` gave an IC50 of 9.34 µg/mL (MTT; 24 h).
